Measured values from different studies.
Lines come from different studies, so protocols differ. Values joined by “and” are separate records of one study, mostly repeats; a detail may differ.
BRD4 BD2: Bromodomain-containing protein 4, BD2 (BRD4, Homo sapiens, UniProt O60885)
BRD4 BD1: Bromodomain-containing protein 4, BD1 (BRD4, Homo sapiens, UniProt O60885)
BRD4 short isoform: Bromodomain-containing protein 4, short isoform (BRD4, Homo sapiens, UniProt O60885)

Compound	target	assay	system	endpoint	value
Cn1cc(-c2cc(N3CCCCS3(=O)=O)ccc2N[C@H]2CC[C@@](C)(O)CC2)c2cc[nH]c2c1=O	BRD4 BD2	cell-free assay, TR-FRET		IC50	2.26 nM
O=C1CCCN1c1cccc(NS(=O)(=O)c2ccc(F)c(Cl)c2)c1	BRD4 BD1	binding, differential scanning fluorimetry		IC50	25600 nM
Cc1cnc(Nc2ccc(C3CCN(C)CC3)c(F)c2)nc1Nc1ccc(Cl)c(NS(=O)(=O)C(C)(C)C)c1	BRD4 BD1	cell-free assay, AlphaScreen		IC50	14.9 nM
Cc1nc(S(=O)(=O)Nc2cc3c(cc2Oc2cccc(COCC(C)C)c2)n(C)c(=O)n3C)cn1C	BRD4 BD1			IC50	> 17100 nM
COc1cc(-c2cc(C(C)=O)n3ccccc23)cc(OC)c1Cn1ccnc1	BRD4 BD1	inhibitor		IC50	2200 nM
Cc1ncsc1-c1ccc(CNC(=O)[C@@H]2C[C@@H](O)CN2C(=O)[C@@H](NC(=O)COCC(C)(COCCOCCOCCNC(=O)C[C@@H]2N=C(c3ccc(Cl)cc3)c3c(sc(C)c3C)-n3c(C)nnc32)COCCOCCOCCNC(=O)C[C@@H]2N=C(c3ccc(Cl)cc3)c3c(sc(C)c3C)-n3c(C)nnc32)C(C)(C)C)cc1	BRD4 short isoform	BROMOscan		Kd	0.086 nM and 0.079 nM
Cc1cc2c(cc1N)n(C)c(=O)n2C	BRD4 BD2			IC50	> 14800 nM
Cn1cc(-c2cc(N3CCCS3(=O)=O)ccc2N[C@H]2CC[C@@](C)(O)CC2)c2cc[nH]c2c1=O	BRD4 BD2	cell-free assay, TR-FRET		IC50	2.43 nM
CCOc1ccc(C(C)=O)cc1NC(=O)c1cccc(C(=O)O)c1	BRD4 BD1	binding, competition with immobilised ligand		Kd	> 50000 nM
COc1ccc(Br)cc1S(=O)(=O)Nc1cccc(N2CCCC2=O)c1	BRD4 BD1	binding, differential scanning fluorimetry		IC50	11900 nM
CC(=O)N1c2ccc(-c3ccc(CNC(=O)c4cn5cc(-c6cnc(N)nc6)nc(N6CCOCC6)c5n4)cc3)cc2CC[C@@H]1C	BRD4 BD1	binding, competition with immobilised ligand		Kd	52 nM
Cc1sc2c(c1C)C(c1ccc(Cl)cc1)=N[C@@H](CC(=O)NCCN(C)CCCCNC(=O)CCCCOc1cccc3c1C(=O)N([C@H]1CCC(=O)NC1=O)C3=O)c1nnc(C)n1-2	BRD4 short isoform	degrader, Western blot, measured: BRD4 short isoform	MV4-11	DC50	20 nM
O=C1CCCN1c1cccc(NS(=O)(=O)c2cccc(F)c2)c1	BRD4 BD1	binding, differential scanning fluorimetry		IC50	23800 nM

For quick reference, copied from above:
Compound	target	assay	system	endpoint	value
COc1ccc(Br)cc1S(=O)(=O)Nc1cccc(N2CCCC2=O)c1	BRD4 BD1	binding, differential scanning fluorimetry		IC50	11900 nM
